# Results collected from several papers.
# Compare with care: the assays were run in different laboratories. “And” joins repeats or separate records; there may be more than shown. ± gives the spread as reported.
Molecule,test,system,setting,scale,quantity,value
O=C1Nc2c(C(=O)O)ccnc2N(C2CC2)c2ncccc21,,"olive baboon (Papio anubis), non-pregnant, serum","oral, 10 mg/kg of nevirapine, solution, single dose",,AUC(0-8 h),1080 ± 441 ng·h/mL
O=c1c(O)c(-c2ccc(O)cc2)oc2cc(O)cc(O)c12,,phosphate buffer,"pH 6.8, added from DMSO stock",,precipitation concentration,> 80 µM
CCCCC1(CCCC)CN(c2ccccc2)c2cc(SC)c(OCC(=O)N[C@@H](C(=O)NCC(=O)O)c3ccccc3)cc2S(=O)(=O)C1,,"human, plasma","oral, 5 mg once daily, day 14, geometric mean",,AUC(0-t),0.751 ng·h/mL
CC(C)(Sc1ccncc1-c1ccc(C#N)c2ccccc12)C(=O)O,,"male, urine","oral, 15 mg, 72 h, severe renal impairment",,renal clearance,2.86 mL/min
O=C(CCCN1CCCN(c2ccc(Cl)cc2)CC1)c1ccc(F)cc1,,"male Sprague-Dawley rats, plasma","intravenous, 1.7 mg/kg, added: HAL 0.7 mg/kg plus BCT 0.1 mg/kg",,Vss,2 ± 0.03 L/kg
CC(C)C[C@H](NC(=O)[C@H](CCCNC(=N)N)NC(=S)Nc1ccc(C[C@H]2CN(CC(=O)O)CCN(CC(=O)O)CCN2CC(=O)O)cc1)C(=O)N[C@@H](CC(N)=O)C(=O)N[C@H](C(=O)NCC(=O)NCC(=O)N[C@H](C(=O)N[C@@H](Cc1ccc(O)cc1)C(=O)N[C@@H](Cc1ccccc1)C(=O)N[C@@H](CC(C)C)C(=O)N[C@H](C(=O)N[C@H](C(=O)N[C@@H](CCCNC(=N)N)C(=O)N[C@@H](CCC(N)=O)C(=O)O)[C@@H](C)O)[C@@H](C)O)[C@@H](C)O)C(C)C [fluorine-18 labelled],radio-HPLC,"mouse (HepG2 tumour-bearing), blood","intravenous, 5.55 MBq, 1 h",,intact parent radiotracer,96.7 ± 1.55%
CC(C)C[C@H](NC(=O)[C@H](CCc1ccccc1)NC(=O)CN1CCOCC1)C(=O)N[C@@H](Cc1ccccc1)C(=O)N[C@@H](CC(C)C)C(=O)[C@@]1(C)CO1,,"human patients, plasma","intravenous infusion 10 min, 20 mg/m^2, day 1 of cycle 1, KRd regimen",,steady-state volume of distribution,10.9 ± 4.39 L
COc1cc(/C=C/C(=O)CC(=O)/C=C/c2ccc(O)c(OC)c2)ccc1O,I-125 label,"C57BL/6J mouse, cerebral cortex","intranasal vs intraperitoneal, 10 µg/mouse IN, 100 µg/mouse IP, 4 h",baseline: intranasal over intraperitoneal,brain uptake ratio,5.46
Cn1c(-c2ccc(C(N)=O)cc2F)nnc1C(C)(C)Oc1c(F)cc(Cl)cc1F,,"young non-Japanese subjects, plasma","oral, 20 mg single dose, day 1",,Cmax mean,232 ng/mL
O=C1N=C(N2CCOCC2)CN1c1ccc(Cl)cc1,,"beagle dog, both sexes, plasma","oral, 30 mg/kg, day 0, tablets, single dose",,terminal half-life,1.75 h
CN1C(=O)C(C)(C)Oc2c(-c3cn(C)c(=O)c4[nH]ccc34)cc(S(C)(=O)=O)cc21,,"human patients, plasma","oral, high-fat meal, median",,steady-state Tmax,6 h
Cc1nc2cccc(OCC(C)(C)C(=O)NC(C)C)c2c(N)c1C(=O)O,,"Sprague-Dawley rat (both sexes), plasma","dietary, 60 mg/kg/day, day 7",,Tmax,3 h
CNC(=O)c1ccc(-c2cnc3ncc(Cc4ccc5ncccc5c4)n3n2)cc1F,,"human, moderate hepatic impairment (Child-Pugh B), plasma","oral, 200 mg single dose",,Cmax (mean),1560 ng/mL
liraglutide,equilibrium dialysis,"human plasma, diluted",10 nM,,plasma protein binding,no effect
Cc1cc(Nc2ncc(Cl)c(Nc3ccccc3S(=O)(=O)C(C)C)n2)c(OC(C)C)cc1C1CCNCC1,refers to: unbound drug,"human, plasma","oral, 750 mg/day",,"Css,max",25 nM and 42 nM and 21 nM
O=S(=O)(O)Cc1ccccc1Nc1c(Cl)cccc1Cl,,human liver microsomes,"30 min, added: NADPH",,remaining compound,53 ± 4.3%
CS/C(S)=N/CCCC[S+](C)[O-] (racemic),"RT-PCR, refers to: Cyp2c6","rat, colon","oral gavage, 200 mg/kg, dosed for four days",baseline: vehicle,mRNA fold change,0.198
CC(C)(c1ccc(O)cc1)c1ccc(O)cc1,GC-MS,"exposure tank water with snails, reconstituted water","250 ng/L nominal, 27 °C",,half-life,2.53 h
CCCC[C@@H]1NC(=O)[C@@H](NC(=O)[C@H](CCC(=O)O)NC(=O)CNC(=O)CN2CCN(CC(=O)O)CCN(CC(=O)O)CCN(CC(=O)O)CC2)CCCCNC(=O)C[C@@H](C(N)=O)NC(=O)[C@H](C(C)C)NC(=O)[C@@H]2CCCN2C(=O)[C@H](CCCNC(=N)N)NC(=O)CNC(=O)[C@H](Cc2c[nH]c3ccccc23)NC(=O)[C@H](CCCNC(=N)N)NC(=O)[C@@H](Cc2ccccc2)NC(=O)[C@H](Cc2c[nH]cn2)NC(=O)[C@H](CCC(=O)O)NC1=O [indium-111 labelled],,"normal C57 mice, liver","intravenous, 0.037 MBq, 24 h",,tissue uptake,0.12 ± 0.01 %ID/g
CCCOc1ccc([C@H]2CNC(=O)N2c2ccc3[nH]cnc3c2)cc1,,"human, elderly, fasted, plasma","oral, 500 mg twice daily, tablet, day 11, 2 to 12 h postdose, geometric mean",,effective half-life,2.78 h
CC(C)=CCC[C@](C)(O[C@@H]1O[C@H](CO)[C@@H](O)[C@H](O)[C@H]1O)[C@H]1CC[C@]2(C)[C@@H]1[C@H](O)C[C@@H]1[C@@]3(C)CC[C@H](O)C(C)(C)[C@@H]3[C@@H](O[C@@H]3O[C@H](CO)[C@@H](O)[C@H](O)[C@H]3O[C@@H]3O[C@@H](C)[C@H](O)[C@@H](O)[C@H]3O)C[C@]12C,,"Sprague Dawley rat, male, plasma","oral, 45 mg/kg, pure ginsenoside mixture in water",,CL/F,388 ± 108 mL/min/kg
O=C(Cc1cccc(OC(F)(F)F)c1)Nc1ccc(CCCCc2nnc(NC(=O)Cc3ccccn3)s2)nn1,,"human patients, plasma","oral, 100 mg three times daily fasted, cycle 1 day 15 steady state",,Cmin,147 ng/mL
CCc1ccc(C(=O)CSc2nc(C)cc(C)c2C#N)cc1,metabolic stability,"human, liver microsomes","0.5 µM, pH 7.4",,microsomal CLint,1070 µL/min/mg
O=C(c1cccnc1-c1ccncc1)N1CCC(O)(Cc2ccccc2)CC1,,"healthy human, urine","oral, 600 mg once daily, day 1, arithmetic mean",,renal clearance,5.67 mL/min
O=C(Nc1ccc(OC(F)(F)F)cc1)N[C@H]1CC[C@H](Oc2ccc(C(=O)O)cc2)CC1,,"mares, plasma","intravenous, 0.3 mg/kg",,Vss,0.956 ± 0.096 L/kg
CCCCCCCCCCCCCCCCCCOP(=O)([O-])OC1CC[N+](C)(C)CC1,,"rhesus monkey, male, cerebrospinal fluid","oral, 7 mg/kg, single dose, mean of 3",,Tmax,~178 h
NCCCC[C@@H]1NC(=O)[C@@H](Cc2c[nH]c3ccccc23)NC(=O)[C@H](c2ccccc2)NC(=O)[C@@H]2C[C@@H](OC(=O)NCCN)CN2C(=O)[C@H](Cc2ccccc2)NC(=O)[C@H](Cc2ccc(OCc3ccccc3)cc2)NC1=O,,healthy human volunteers,"subcutaneous, 600 µg, 2 h, post-prandial",,blood glucose,173 mg/dL
COc1cccc(N2CCN(C3=Nc4c(F)cccc4[C@H](CC(=O)O)N3c3cc(C(F)(F)F)ccc3OC)CC2)c1,,"healthy women, plasma","intravenous infusion, 240 mg, day 1, single dose, 30-min infusion",,volume of distribution,193 ± 64.2 L
CC(C)NC[C@@H](C(=O)N1CCN(c2ncnc3c2[C@H](C)C[C@H]3O)CC1)c1ccc(Cl)cc1,,"human, Mild hepatic function, plasma","oral, 100 mg single dose, NCI classification, geometric mean",,apparent volume of distribution,16000 L
COC(=O)C[C@](O)(CCCC(C)(C)O)C(=O)O[C@@H]1C(OC)=C[C@]23CCCN2CCc2cc4c(cc2[C@H]13)OCO4,,"CD1 mouse, brain","oral, 1 mg/kg, 24 h, below quantification limit 1.00 ng/mL",,tissue concentration,not detected
CC1(C)C(=CC=C2CCCC(C=CC3=[N+](CCCCS(=O)(=O)[O-])c4ccccc4C3(C)C)=C2Cl)N(CCCCCC(=O)O)c2ccccc21,NIR fluorescence imaging,"nude mouse, MCF7 xenograft","17 nmol/mouse, 5 d",baseline: Cy7,tumour fluorescence per volume,~4 fold
CCCC[C@H](NC(C)=O)C(=O)N[C@H]1CCC(=O)NC[C@@H](C(=O)N[C@@H](Cc2c[nH]c3ccccc23)C(N)=O)NC(=O)[C@H](CCCNC(=N)N)NC(=O)[C@@H](Cc2ccccc2)NC(=O)[C@H](Cc2c[nH]cn2)NC1=O,,"CD Sprague-Dawley rat, male, plasma","subcutaneous, 1.0 mg/kg/day, day 28",,AUC(0-t),933 ng·h/mL
Cn1ncc(Cl)c1-c1cc(C(=O)N[C@H](CN)Cc2ccc(F)c(F)c2)oc1Cl,,human patients,"oral, continuous once-daily dosing",,effective half-life,~67.2 h
CN[C@H](CC(C)C)C(=O)N[C@H]1C(=O)N[C@@H](CC(N)=O)C(=O)N[C@H]2C(=O)N[C@H]3C(=O)N[C@H](C(=O)N[C@H](C(=O)O)c4cc(O)cc(O)c4-c4cc3ccc4O)[C@H](O)c3ccc(c(Cl)c3)Oc3cc2cc(c3O[C@@H]2O[C@H](CO)[C@@H](O)[C@H](O)[C@H]2O[C@H]2C[C@](C)(N)[C@H](O)[C@H](C)O2)Oc2ccc(cc2Cl)[C@H]1O,,"pig, Danish Landrace, plasma","intravenous, 1000 mg over 100 min, 450 min dosing interval, added: 1.0 µg/mL MIC",baseline: dosing interval,time above MIC,100%
Clc1ccc(CNc2ncnc3ccccc23)cc1,UV-metric titration,water,25.0 °C,,pKa1,6.02 ± 0.01
Cc1ccc(NC(=O)c2ccc(CN3CCN(C)CC3)cc2)cc1Nc1nccc(-c2cncc(-c3oncc3C)c2)n1,,"Parkinson's disease patients, plasma","oral, 50.0 mg once daily, day 7, 7-day dosing, mean",,AUC(0-t),51100 ng·h/mL
FC(F)(F)c1ccc(CNc2ccc(Cc3c[nH]c4ncc(Cl)cc34)cn2)cn1,,"human patients, plasma","oral, 1000 mg/day, steady state",,AUC(0-4h),26100 ng·h/mL
CN(C)C(=N)N=C(N)N,,"Sprague-Dawley rat, male, blood","oral, 1500 mg/kg, 6 h",,ALT,increased
O=C(CCc1ccccc1)c1ccccc1OCC(O)CN1CCN(C(c2ccccc2)c2ccccc2)CC1 (stereo not drawn),metabolic stability,"human, liver microsomes","20 µM, pH 7.4",,scaled CLint,13.6 mL/min/kg
NC(=O)CC[C@@H]1NC(=O)[C@H](Cc2ccccc2)NC(=O)[C@H](Cc2ccc(O)cc2)NC(=O)CCSSC[C@@H](C(=O)N2CCC[C@H]2C(=O)N[C@H](CCCN=C(N)N)C(=O)NCC(N)=O)NC(=O)[C@H](CC(N)=O)NC1=O,UPLC-MS/MS,processed plasma extract,"3.05 pg/mL, 24 h",,reinjection stability,100%
acyl ghrelin (human),,"mouse, wild type, hippocampus","intravenous, 10 min",,brain/serum ratio,4.19 µL/g
O=C(O)[C@H](c1ccccc1Cl)N1CCc2sccc2C1,HPLC-MS/MS,feline citrate plasma,"72 h, -20 °C, storage stability",,deviation from nominal,8%
des-acyl ghrelin (human),,"mouse, wild type, cortex","intravenous, 10 min",,brain/serum ratio,7.56 µL/g
CC(=O)N[C@@H](CCCNC(=N)N)C(=O)N[C@H](C(=O)N[C@@H](CC(=O)O)C(=O)N[C@H](C(=O)N[C@@H](CCCNC(=N)N)C(=O)N[C@H](C(=O)N[C@@H](CC(=O)O)C(=O)N[C@H](C(N)=O)C(C)C)C(C)C)C(C)C)C(C)C,rotational rheometry,1% w/v aqueous solution,shear rate range 1-1000 s^-1,,viscosity,458 ± 20.9 Pa·s
[2H]C([2H])([2H])Oc1cc2c(cc1OC([2H])([2H])[2H])C1CC(=O)C(CC(C)C)CN1CC2 (stereo not drawn),refers to: deuterated β-HTBZ,"healthy human volunteers, plasma","oral, 6 mg single dose, standard meal",,dose-normalized Cmax,0.9 ng/mL
CC1(C)Oc2cc3oc(=O)ccc3cc2C[C@@H]1O,,"male CD-1 mouse, plasma","oral gavage, 80 mg/kg daily, 4 weeks",,plasma ALT activity,33.3 ± 21.2 U/L
C[C@]12CC[C@@H]3c4ccc(O)cc4CC[C@H]3[C@@H]1C[C@@H](O)[C@@H]2O,GC-MS,"breast cancer women on NSAI, serum","vaginal, 0.03 mg daily, 1 h, day 28",,minimum serum concentration,0 ng/mL
Cc1c(CN2CCN(C(=O)[C@H](C)O)CC2)sc2c(N3CCOCC3)nc(-c3cnc(N)nc3)nc12,,"human patients, plasma",oral,,V1/F,211 L
